Measurements of several laboratories.
Parts stem from different laboratories: compare values within a part only. Values joined by “and” are separate records of one study, mostly repeats; a detail may differ.

Series 1
Compound: Cn1cc(-c2cccc(CN3CCC4(CC3)COc3c4ccc4c3CN([C@H]3CCC(=O)NC3=O)C4=O)c2)cn1
| medium | time | notes | remaining compound |
| --- | --- | --- | --- |
| human plasma | 30 min | mean | 109% |
| rat plasma | 60 min | mean | 110% |
| mouse plasma | 15 min | mean | 114% |
| human plasma | 15 min | mean | 109% |
| rat plasma | 5 min | mean | 117% |
| monkey plasma | 0 min |  | 100% |
| rat plasma | 15 min | mean | 114% |
| monkey plasma | 30 min | mean | 120% |
| rat plasma | 120 min | mean | 95.9% |
| human plasma | 0 min |  | 100% |

Series 2
Organism: Leishmania donovani
Method: high-content imaging
Strain: MHOM/IN/80/DD8
Medium: intracellular amastigotes in THP-1
Tested at: 20 µM
| SMILES | inhibition |
| --- | --- |
| COc1ccc(OC)c(Nc2c3c(nc4ccccc24)CCC3)c1 | inactive |
| Cc1ccc2nc3c(c(Nc4cccc(O)c4)c2c1)CCC3 | inactive |
| c1ccc2c(NCCCN3CCOCC3)c3c(nc2c1)CCC3 | inactive |
| O=C(CN1CCOCC1)Nc1c2c(nc3ccccc13)CCC2 | inactive |
| CC1CCN(CC(=O)Nc2c3c(nc4ccccc24)CCC3)CC1 | inactive |
| CCOc1ccc(Nc2c3c(nc4ccc(Cl)cc24)CCC3)cc1 | inactive |
| COc1ccccc1Nc1c2c(nc3ccccc13)CCC2 | inactive |
| O=C(CN1CCCCC1)Nc1c2c(nc3ccccc13)CCC2 | inactive |

Other studies, line by line
| SMILES | target or system | test | test system | conditions | quantity | value |
| --- | --- | --- | --- | --- | --- | --- |
| C#CCN1C(=O)C(O)(C(=O)O)Oc2cc(F)ccc21 (centres unmarked) | Setaria viridis | fresh weight |  | 150 g ai/ha, pre-emergence treatment | inhibition | 99.8% and 100% |
| CC(C)C[C@@H]1NC(=O)[C@@H](N(C)C(=O)[C@@H](NC(=O)[C@@H]2C[C@@H](F)CN2C(=O)C2(C(F)(F)F)CC(F)(F)C2)C2CC2)CCCCCCCN(C)C(=O)[C@H](Cc2cc(Cl)cnc2OC2CC2)N(C)C1=O |  | immunohistochemistry | mice, sample A PDX, tumour | oral, 100 mg/kg three times daily for 4 d, 8 h after last dose | phospho-KNL1 positive cells | 3.4% and 3% |

Some of these lines once more (series 2):
| SMILES | inhibition |
| --- | --- |
| c1ccc2c(NCCCN3CCOCC3)c3c(nc2c1)CCC3 | inactive |
| CCOc1ccc(Nc2c3c(nc4ccc(Cl)cc24)CCC3)cc1 | inactive |
| O=C(CN1CCCCC1)Nc1c2c(nc3ccccc13)CCC2 | inactive |
